# Experimental data of several laboratories.
# Each numbered part is a random draw from the data of one study; scales do not carry over between parts. Changes are numbered by the printed parent chain.

# Series 1
# Target: RNA binding protein fox-1 homolog 2, RRM domain, GST-SBP tag (RBFOX2, Homo sapiens, UniProt O43251-10, residues 100-194)
# Method: RNA Bind-n-Seq
# Form: RNA
# Medium: in vitro
# Concentration: 365 nM
# Notes: natural RNA segment, single round, ends assumed
# Reference: no-protein control
# Direction: higher = stronger binding
# Shared flanks, not repeated: GGGAGUUCUACAGUCCGACGAUC … UGGAAUUCUCGGGUGCCAA
# Target sequence (chain): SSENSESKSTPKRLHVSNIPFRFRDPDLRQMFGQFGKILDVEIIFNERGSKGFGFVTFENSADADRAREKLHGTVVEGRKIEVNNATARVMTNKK
Oligonucleotide,RBNS enrichment (R)
CCUUGAAUAUAGUGAGUCCAGUCUCAAAAGAAAAAAAAAGGUAAGUGAGGCUGGAGAAAUGGCUUAGAGGUUAAGAGUGUGGACUGUUCUUGCGUAGUUAUGACCAUUGA,1.83
GCCAGCUCCCUCACAUGUACUUGGUCCAACUGUAGGUGACUGGUUAUCACAUCUUCACUGGCCCCUGUGGCCCUGCAUGUAGUAGGGGAGGCUUCAGUCAGCCCCUCACU,1.2
UUUGAAACAAGGAAGCUGCGCUCUGUCAUGUGCUGCCUUUUUUAUUUAUUCAGGCUAAACCUACAAUAUGUGAAUCAACCCGUUUAAUGAAUCCUGGGACAUGCUGAUGA,0.555
CAGCCCAGGAUGGGAGUAGGGUAUGCCAUAUCCCACAGGGGCUAUGAGUAGGUACCAGAUACCAACUCAGUAAUUAAUUUUGUAGCAUUGUCCCCAAGCUCUGGAUUUUU,0.418
ACAGAAGGCAUUGUUCCCUACCCUCUGGCGAGUGCAUGCAGCAGAGAGUUAGACAGCAACUUACCUACUCUGAAGUUUUCUACAACAAAAAAAGAGUUGAGUGAAUCUGU,16.4
AGAUUAUUGCAACAUUUAACCUGAAUUUGUAGAACGGAUGACAUAAAGCAAAUGGAUGUCAAAUGAACGCUGAGCCUGACAGCCUGGGAUGGAGGGGAAGCCCCGCCUCU,2.18
AGCAGUAAGUAGCACACCCAUCACUUAGACAAAUACCCAAGGGAGUUCUGCUCACCGAUAUUUGCCCGGCCCCUGGAAGAGGAAACCUUUCGAAAGCUAAUAUCCCAGAA,0.23
UCUGCACGACUGAAGGGCCAGGCGUAAAGAUGACUGACAGAAGUGUAGACUAGAGGAGAGGCUAGAGAGCAUGUGCUGCGGGGCCUAAUUAUAGGUCCUCACUCUUGACA,1.97
UCCACUACCAUUGUAGAUCCCCUUUCACUAAAUAUAAGACAUGCUAGCUAGCCUGGCUCAGUGAGCUGAUUAGCGUAUGGCAGGGGGCCUAGGAAGUACAGAGCAUCCUG,0.434
CUGUCAAAGGGUGUUUUCGGAAUCACUUUUGUGUUUCGUAUAGUAAAACAAUGUGAUUCAUUCCAAAGUAACAGAAGGCUAUUUGUAAGAAAGAUAAAGGCUUGUGAACA,0.431
UUUUAGUACUGAACUCCUGUGCCCUUCUUUUUUAAAAAGGUCUUCCCUCAUUUUGUAUAUUUAGCCAGAUACAGAAAGCUCACAUCCUGAAGGAAACAUGACCAUUCUGA,0.532
GAAAUUUGCAGCUUCUCUAGUUAGAAAUGUAUUUCUUACAGCUUUUUAAGACUUUGUCAUCCGUUCUAGUGUAUAUGCAGAGCCUGUUGUGUGUGUGGACUGGUUAUAGA,2.35

# Series 2
# Target: CCND2, cyclin fold, Cln2 fusion (human)
# Method: yeast growth competition, sequencing
# Medium: yeast
# Notes: strong parent motif
# Reference: not given
# Direction: higher = stronger binding
# Starting sequence: E2F1 docking peptide (human); PPVKRRLDFETDH
Variant,normalised enrichment score
PPVKRRLHFETDH [D8H],0.684
PPVKSRLDFETDH [R5S],-0.185
PPVKRRLIFETDH [D8I],1.94
PPVKRCLDFETDH [R6C],1.03
PPVKRRLDFYTDH [E10Y],1.18
PPVKRYLDFETDH [R6Y],0.595
PPVKRRLVFETDH [D8V],1.72
PPVKRRLLFETDH [D8L],1.43
PPVKRRLDGETDH [F9G],0.161
PPVKRRDDFETDH [L7D],-0.0887
PPVKRRLDFENDH [T11N],2.12
PPVKRLLDFETDH [R6L],0.668
PPVKRRLDFVTDH [E10V],1.19
PPVKRRLDFEEDH [T11E],1.92
PPVKRRKDFETDH [L7K],0.0966
PSVKRRLDFETDH [P2S],1.51
PPVARRLDFETDH [K4A],3.24
PVVKRRLDFETDH [P2V],1.03
PPVKRVLDFETDH [R6V],1.21
PPVKARLDFETDH [R5A],0.43
PPVYRRLDFETDH [K4Y],0.532
PPVKRRLDFEWDH [T11W],1.91
PPVKRRLDFNTDH [E10N],2.17
PPVKRRLDHETDH [F9H],-0.0881
PPVKRRLDFKTDH [E10K],1.25

# Series 3
# Target: Prothrombin, mature alpha-thrombin (F2, Homo sapiens, UniProt P00734)
# Method: aptamer microarray, sandwich
# Form: DNA with 2'F-ANA
# Medium: in vitro
# Concentration: 200 nM
# Notes: whole 15-mer aptamer, many near background
# Added: Cy3 exosite-II aptamer, 400 nM
# Direction: higher = stronger binding
# Oligonucleotide: GGTTGGTGTGGTTGG
Modification,mean fluorescence intensity [a.u.]
2'F-ANA at 1 2 5 7 8 9 10 12 13,47.8
2'F-ANA at 5 6 8 9 10 11 13 14 15,51.3
2'F-ANA at 2 3 5 7 13 14 15,71.4
2'F-ANA at 3 4 9 10 12 13 15,284
2'F-ANA at 1 3 4 5 7 8 10 15,50.4
2'F-ANA at 2 3 4 5 7 8 9 11 12 13,129
2'F-ANA at 3 6 7 8 9 11 12 13,1090
2'F-ANA at 1 2 3 7 8 10 12 13,96.3
2'F-ANA at 1 4 5 10 12 13,46.1
2'F-ANA at 1 2 4 5 8 9 11 12 13,64.5
2'F-ANA at 1 2 3 4 5 7 9 10 11 13 15,65.8
2'F-ANA at 1 3 5 6 7 8 9 10 13 15,91
2'F-ANA at 2 3 5 6 7 9 13,63.8
2'F-ANA at 2 3 4 5 6 7 10 12 13 15,73
2'F-ANA at 1 3 7 9 11 12 15,394
2'F-ANA at 1 4 5 6 7 8 13 14,60.3
2'F-ANA at 1 3 6 7 8 9 10 13,80.8
2'F-ANA at 2 4 7 8 9 10 11 13,97
2'F-ANA at 3 4 5 6 7 8 9 10 13,51.8
2'F-ANA at 1 2 3 5 8 10 14,50.6

# Series 4
# Target: Histone acetyltransferase KAT6A, both winged helices, GST fusion (KAT6A, Homo sapiens, UniProt Q92794, residues 1-181)
# Method: protein binding microarray
# Form: double-stranded DNA, one strand shown
# Medium: in vitro
# Concentration: not given
# Notes: 8-mer, flanks averaged, mean of 2 arrays, mostly near background
# Reference: not given
# Direction: higher = stronger binding
# Residues (chain): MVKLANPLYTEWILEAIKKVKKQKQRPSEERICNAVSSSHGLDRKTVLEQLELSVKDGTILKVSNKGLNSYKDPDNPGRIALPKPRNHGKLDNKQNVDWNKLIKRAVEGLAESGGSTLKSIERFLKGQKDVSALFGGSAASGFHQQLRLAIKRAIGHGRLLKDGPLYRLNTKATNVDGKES
Oligonucleotide,E-score
CATTTCCG,0.173
AGAACAAA,0.0343
CTCACCAA,-0.0761
TCGTTGCA,-0.143
GCCTTGCC,0.00196
ATTGTGAA,-0.0359
GTCTGTTA,-0.0249
AAAGCAGG,-0.222
ATTTTGCC,0.00717
ATCCATTC,-0.0983
ATTCACGA,-0.176
AAATCTGG,-0.0069
TACTGACA,-0.134
CGGACTAA,0.17
GCGGTCAA,0.291
ATCTGGCC,-0.00988
ACGAAGGC,-0.109
GCAGATCA,-0.0574
GAGTATAA,-0.00369
GACTTGTA,-0.0418
CAGCAGGG,-0.0935
ACTAGCCC,-0.0662
CAGTGGAA,-0.0266
CAATGGTA,-0.0343
CCTCTCGA,-0.108

# Further values, each from its own experiment
Molecule,target,assay,system,conditions,how to read,measurement,value
"PhoQ, residues 284 288 289 292 302 303 TSTLRA","PhoP, residues 12 14 15 18 19 TTLRV (Escherichia coli, UniProt P23836)","Sort-seq, refers to: YFP reporter",E. coli,"PhoQ-PhoP variant library, added: 10 µM Mg2+","reference: high Mg2+ state, higher = stronger signaling",fold induction,11

# Some of these lines once more (series 2):
Variant,normalised enrichment score
PPVARRLDFETDH [K4A],3.24
PPVKRRLDFNTDH [E10N],2.17
PPVKRRLHFETDH [D8H],0.684
PPVKRRLDFYTDH [E10Y],1.18
PVVKRRLDFETDH [P2V],1.03
